# Measured values collected from several papers.
# Each line is one published result; not all experiments were run side by side. “And” joins repeats or separate records; there may be more than shown. ± gives the spread as reported.
# Organism: Escherichia coli
SMILES,test,test system,setting,how to read,endpoint,value
N#Cc1c(-c2ccc(OCc3ccccc3)cc2)c(C(N)=O)c(N)n(N)c1=O,time-kill,,"1 x MIC, 0 h",,viable count,6.46 log CFU/mL
CC1CCC(C(C)C)C(OC2=C(Cl)C(=O)c3ccccc3C2=O)C1 (centres unmarked),,MTCC 405,10 µg/mL,,zone of inhibition,19 mm
O=c1c2cc(Cl)ccc2[nH]c(=S)n1Cc1cccnc1,,uropathogenic,,,MIC90,> 100 µM
N=C(N)c1cccc(OCc2cccc(COc3cccc(C(=N)N)c3)c2)c1,checkerboard,BW25113,"concentration not given, lowest-FICI combination, added: erythromycin",,MIC of compound in combination,50 µg/mL
CC[C@H]1OC(=O)[C@H](C)[C@@H](O[C@H]2C[C@@](C)(OC)[C@@H](O)[C@H](C)O2)[C@H](C)[C@@H](O[C@@H]2O[C@H](C)C[C@H](N(C)C)[C@H]2O)[C@](C)(O)C[C@@H](C)C(=O)[C@H](C)[C@@H](O)[C@]1(C)O,,CGMCC 1.9,"concentration not given, 18 h, 37 °C",,inhibition zone diameter,0 mm
CC(C)C[C@H](NC(=O)[C@H](Cc1ccc(O)cc1)NC(=O)[C@@H]1CCCN1C(=O)[C@H](CCCNC(=N)N)NC(=O)[C@@H]1CCCN1C(=O)[C@H](CCCCN)NC(=O)[C@H](CC(=O)O)NC(=O)[C@@H]1CCCN1C(=O)[C@H](CCCNC(=N)N)NC(=O)C1(N)CCCCC1)C(=O)N1CCC[C@H]1C(=O)N[C@@H](CCCNC(=N)N)C(=O)N1CCC[C@H]1C(=O)N[C@@H](CCCNC(=N)N)C(=O)N1CCC[C@H]1C(=O)N1CCC[C@H]1C(=O)N[C@@H](CCCNC(=N)N)C(=O)N1CCC[C@H]1C(=O)N[C@H](C(=O)N[C@@H](CCCNC(=N)N)C(=O)N[C@@H](CSSC[C@H](NC(=O)[C@H](CCCNC(=N)N)NC(=O)[C@@H](NC(=O)[C@@H]1CCCN1C(=O)[C@H](CCCNC(=N)N)NC(=O)[C@@H]1CCCN1C(=O)[C@@H]1CCCN1C(=O)[C@H](CCCNC(=N)N)NC(=O)[C@@H]1CCCN1C(=O)[C@H](CCCNC(=N)N)NC(=O)[C@@H]1CCCN1C(=O)[C@H](CC(C)C)NC(=O)[C@H](Cc1ccc(O)cc1)NC(=O)[C@@H]1CCCN1C(=O)[C@H](CCCNC(=N)N)NC(=O)[C@@H]1CCCN1C(=O)[C@H](CCCCN)NC(=O)[C@H](CC(=O)O)NC(=O)[C@@H]1CCCN1C(=O)[C@H](CCCNC(=N)N)NC(=O)C1(N)CCCCC1)C(C)C)C(=O)NN)C(=O)NN)C(C)C,"membrane disruption, propidium iodide uptake",25922,"90 min, 37 °C",,MDC,30.9 ± 1.4 µg/mL
N=C(N)c1ccc(OCCCCCCCCCCCOc2ccc(C(=N)N)cc2)cc1,,BW25113,"concentration not given, lowest-FICI combination, added: rifampicin",,MIC in combination,3.13 µg/mL
C#CCCCC(=O)NCC,"LuxR reporter, antagonist",DH5α sensor strain,"10 µM, added: OHHL 200 nM",,inhibition,17 ± 2%
Cc1ccc(C[C@H](NC(=O)[C@@H](Cc2ccccc2)NC(=O)[C@@H](Cc2c[nH]c3ccccc23)NC(=O)[C@@H](N)CCCN)C(=O)N[C@H](Cc2ccccc2)C(=O)N[C@H](CCCN)C(N)=O)cc1,bacterial growth,ATCC 35218,,,IC50,> 20 µg/mL
N=C(N)c1ccc(OCCCCCCCCCOc2ccc(C(=N)N)cc2)cc1,,BW25113,"concentration not given, lowest-FICI combination, added: rifampicin",,MIC in combination,3.13 µg/mL
C[C@H](N)C(=O)O,"chemotaxis pathway, FRET",MG1655,,,EC50,73.8 µM
N=C(N)c1ccc(OCc2ccc(-c3ccccc3)cc2COc2ccc(C(=N)N)cc2)cc1,checkerboard,BW25113,"concentration not given, lowest-FICI combination, added: erythromycin",,MIC of compound in combination,3.13 µg/mL
C[C@@H](O)[C@H]1C(=O)N2C(C(=O)O)=C(SCCN=CN)C[C@H]12,,"2904, female ICR mice, peritonitis, kidney","dose not given, 168 h",,bacterial load,4.45 log CFU and 3.64 log CFU and 3.73 log CFU and 4.32 log CFU and 4.68 log CFU and 3.3 log CFU
CN[C@@H]1[C@@H](O[C@H]2O[C@H](CO)[C@@H](N)[C@H](O)[C@H]2O)OC2C[C@@H](N)[C@@H](O[C@H]3[C@H](O)[C@@H](O)[C@H](N)C[C@@H]3N)OC2[C@@H]1O (some centres unmarked),,ATCC 25922,,reference: 5% CO2 over ambient air,MIC fold shift,2
O=C1C(Cl)=C(n2cncn2)C(=O)c2ccccc21,,MTCC 405,10 µg/mL,,zone of inhibition,17 mm
CCC[C@@H]1C[C@@H](C(=O)N[C@@H]([C@H]2O[C@H](SC)[C@H](O)[C@@H](O)[C@H]2O)[C@H](C)Cl)N(C)C1,,CGMCC 1.9,"concentration not given, 18 h, 37 °C",,inhibition zone diameter,0 mm
OC[C@H]1O[C@@H]2O[C@H]3[C@H](O)[C@@H](O)[C@@H](O[C@H]4[C@H](O)[C@@H](O)[C@@H](O[C@H]5[C@H](O)[C@@H](O)[C@@H](O[C@H]6[C@H](O)[C@@H](O)[C@@H](O[C@H]7[C@H](O)[C@@H](O)[C@@H](O[C@H]8[C@H](O)[C@@H](O)[C@@H](O[C@H]1[C@H](O)[C@H]2O)O[C@@H]8CO)O[C@@H]7CO)O[C@@H]6CO)O[C@@H]5CO)O[C@@H]4CO)O[C@@H]3CO,"LuxR reporter bioluminescence, antagonist",DH5α sensor strain,"200 µM, added: OHHL 200 nM",,inhibition,-4 ± 2%
CO[C@H]1/C=C/O[C@@]2(C)Oc3c(C)c(O)c4c(O)c(c(/C=N/N5CCN(C6CCCC6)CC5)c(O)c4c3C2=O)NC(=O)/C(C)=C\C=C\[C@H](C)[C@H](O)[C@@H](C)[C@@H](O)[C@@H](C)[C@H](OC(C)=O)[C@@H]1C,,ATCC 25922,,,MIC,5 µM
O=C(N[C@H](CO)[C@H](O)c1ccc([N+](=O)[O-])cc1)C(Cl)Cl,,CGMCC 1.9,"concentration not given, 18 h, 37 °C",,inhibition zone diameter,0 mm
COC(=O)[C@H]1[C@H]2C[C@@H]3c4[nH]c5cc(OC)ccc5c4CCN3C[C@H]2C[C@@H](OC(=O)c2cc(OC)c(OC)c(OC)c2)[C@@H]1OC,checkerboard,tetracycline-resistant (pBR322),"128 µM, added: tetracycline",,tetracycline MIC,225 µM
Cc1c(CN(C)C(=O)/C=C/c2cnc3c(c2)CC(NC(=O)OC(C)(C)C)C(=O)N3)oc2ccccc12 (centres unmarked),broth microdilution,AR-0559,,,MIC,> 32 µg/mL
Nc1ccc2c(c1)B(O)OC2,,ATCC 25922,"8xMIC, 1 h",,post-antibiotic effect,0.78 ± 0.09 h
N[C@@H](CCC(=O)O)C(=O)O,"chemotaxis pathway, FRET",MG1655,,,EC50,102 µM
CC(=O)Oc1ccc(-c2c(C(N)=O)c(N)n(N)c(=O)c2C#N)cc1,time-kill,,"1 x MIC, 120 min",,viable count,0 log CFU/mL
N=C(N)c1cccc(OCCCCCOc2cccc(C(=N)N)c2)c1,,BW25113,"concentration not given, lowest-FICI combination, added: rifampicin",,MIC in combination,100 µg/mL
C[C@@H](O)[C@H]1C(=O)N2C(C(=O)O)=C(S[C@@H]3CN[C@H](C(=O)N(C)C)C3)[C@H](C)[C@H]12,,"ATCC 25922, mice, meningitis, brain",dose not given,,bacterial load,5.84 log CFU/brain and 4.6 log CFU/brain and 4.22 log CFU/brain and 5.16 log CFU/brain and 4.12 log CFU/brain and 3.82 log CFU/brain
N=C(N)c1ccc(OCc2ccc(COc3ccc(C(=N)N)cc3)cc2)cc1,,BW25113,"concentration not given, lowest-FICI combination, added: erythromycin",,MIC in combination,100 µg/mL
NCC[C@H](O)C(=O)N[C@@H]1C[C@H](N)[C@@H](O[C@H]2O[C@H](CN)[C@@H](O)[C@H](O)[C@H]2O)[C@H](O)[C@H]1O[C@H]1O[C@H](CO)[C@@H](O)[C@H](N)[C@H]1O,,CGMCC 1.9,"concentration not given, 18 h, 37 °C",,inhibition zone diameter,24.5 mm
CC1=N/C(=C\c2cc(F)c(O)c(F)c2)C(=O)N1C,"cytoplasmic accumulation, flow cytometry",,,,lowest detectable concentration,10 nM
N=C(N)c1ccc(OCc2ccc3ccc(COc4ccc(C(=N)N)cc4)cc3c2)cc1,,BW25113,"concentration not given, lowest-FICI combination, added: rifampicin",,MIC in combination,3.13 µg/mL
CC(C)Oc1c(NC(=O)c2ccc(NC(=O)[C@H](CC(N)=O)NC(=O)c3ccc(NC(=O)c4ccc(C#N)cc4)cc3)cc2)ccc(C(=O)Nc2ccc(C(=O)O)cc2)c1O,,"ATCC 25922, neutropenic mouse thigh infection","iv, 20 mg/kg/day",,bacterial load reduction below stasis,1.52 log10 CFU/g
N[C@@H](CC(=O)O)C(=O)O,"chemotaxis pathway, FRET",MG1655,,,EC50,0.5 µM
N=C(N)c1ccc(OCCSCCOc2ccc(C(=N)N)cc2)cc1,,BW25113,"concentration not given, lowest-FICI combination, added: erythromycin",,MIC in combination,50 µg/mL
N[C@@H](CS)C(=O)O,"chemotactic response, attractant, FRET",,,,EC50,5.9 µM
N=C(N)c1ccc(/N=N/Nc2ccc(C(=N)N)cc2)cc1,"bacterial growth, inhibitor, OD600",E23,,,MIC90,35.6 µM

# Repeated from above:
SMILES,test,test system,setting,how to read,endpoint,value
N=C(N)c1ccc(OCCCCCCCCCOc2ccc(C(=N)N)cc2)cc1,,BW25113,"concentration not given, lowest-FICI combination, added: rifampicin",,MIC in combination,3.13 µg/mL
N[C@@H](CCC(=O)O)C(=O)O,"chemotaxis pathway, FRET",MG1655,,,EC50,102 µM
